Results collected from several papers.
Every numbered part comes from another study and shows a few of its results, in no order.

Set 1
Target: Ras GTPase-activating protein-binding protein 1, full length (G3BP1, Homo sapiens, UniProt Q13283)
Chain of UniProt Q13283 (whole entry, looked up): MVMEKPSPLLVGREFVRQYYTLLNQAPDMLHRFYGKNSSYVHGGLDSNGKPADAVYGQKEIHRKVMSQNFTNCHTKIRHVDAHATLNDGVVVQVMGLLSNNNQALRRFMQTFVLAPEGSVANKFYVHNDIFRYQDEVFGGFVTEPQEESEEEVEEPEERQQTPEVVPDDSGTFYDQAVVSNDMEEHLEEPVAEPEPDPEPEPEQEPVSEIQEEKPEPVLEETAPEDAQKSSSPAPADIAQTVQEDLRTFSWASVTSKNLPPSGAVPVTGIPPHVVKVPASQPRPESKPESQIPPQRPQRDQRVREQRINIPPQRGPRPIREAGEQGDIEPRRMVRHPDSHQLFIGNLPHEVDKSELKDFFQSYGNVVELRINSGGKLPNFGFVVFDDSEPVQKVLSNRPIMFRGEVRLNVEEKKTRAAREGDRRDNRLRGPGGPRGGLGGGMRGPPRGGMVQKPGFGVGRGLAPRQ
Technique: RNA Bind-n-Seq
Form: RNA
Sample: in vitro
Concentration: 200 nM
Setting: whole 134-nt RNA, ends assumed
With: 150 mM KCl
Baseline: input library
Direction: higher = stronger binding
Strand	log2 enrichment
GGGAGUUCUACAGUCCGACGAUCAGUCCUGUGCUACACAUCGUAUGUACCGAAUCGGGUUUGGGUUUUUGGGAAAAAGGGAAAGUAUUAUGUUACGCCGUUCGGAUCUGCACUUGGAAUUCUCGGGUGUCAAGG	-0.235
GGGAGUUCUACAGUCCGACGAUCUAUUGAUGCAUUUGACCCUACACUGGCUCCAGCCACAGGAACUCCUGUUGUCGGGGGACUAACCUAUCGAGAAGGCAUGUAUAUUGCUGAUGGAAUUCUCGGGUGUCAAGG	-0.618
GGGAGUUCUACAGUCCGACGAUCAGUCCUGUGCUACACAUCGUAUGUACCGAAUCGGGGCCCCCGGCCCCCGGCCCCCGGGAAAGUAUUAUGUUACGCCGUUCGGAUCUGCACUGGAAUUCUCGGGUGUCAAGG	-0.988
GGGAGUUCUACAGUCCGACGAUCUCCUGUGCUACACAUCGUAUGUACCGAAUCGGAAAAAAAGGAAAAAAAGGUUUUUUUGGAAAGUAUUAUGUUACGCCGUUCGGAUCUGCAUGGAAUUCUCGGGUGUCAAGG	-0.791
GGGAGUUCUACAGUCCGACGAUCGGUUUCUGGUGAGCUUCAUGGUUGACGCCCGGGGUGGUUCCAUGAGAGGAAGUCGCCACAACGGCCUGCGAGUGGUGAUCCCGCCACGGAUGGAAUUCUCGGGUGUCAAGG	-1.73
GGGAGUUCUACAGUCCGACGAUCAAGUCCUGUGCUACACAUCGUAUGUACCGAAUCGGUUUUUUUGGAAAAAGGAAAGGAAAGUAUUAUGUUACGCCGUUCGGAUCUGCACUUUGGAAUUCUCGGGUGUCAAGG	-1.33
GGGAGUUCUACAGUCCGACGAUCGUCCUGUGCUACACAUCGUAUGUACCGAAUCGGGGAAAGGGGAAAAAAAGGGGUGGGGAAAGUAUUAUGUUACGCCGUUCGGAUCUGCACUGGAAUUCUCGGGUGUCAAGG	0.548
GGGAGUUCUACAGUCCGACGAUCACCAUGCAGGUGGGCAUCUUUGGGAAGUGGGGCAAGGGGGGGAUAGGGAGGGGGGUAACACUUUGGGAACAGGUGGUCCCAGGUCGUUUUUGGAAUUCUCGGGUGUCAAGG	1.24
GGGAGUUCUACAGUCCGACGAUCCCUGUGCUACACAUCGUAUGUACCGAAUCAAACCCCCAAAUUUUUUUAAACCCCCCCAAAAAAGUAUUAUGUUACGCCGUUCGGAUCUGCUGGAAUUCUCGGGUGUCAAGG	0.284

Set 2
Target: Histone acetyltransferase KAT6A, both winged helices, GST fusion (KAT6A, Homo sapiens, UniProt Q92794, residues 1-181)
Technique: protein binding microarray
Form: double-stranded DNA, one strand shown
Sample: in vitro
Concentration: not given
Setting: 8-mer, flanks averaged, mean of 2 arrays, mostly near background
Baseline: not given
Direction: higher = stronger binding
Residues (chain): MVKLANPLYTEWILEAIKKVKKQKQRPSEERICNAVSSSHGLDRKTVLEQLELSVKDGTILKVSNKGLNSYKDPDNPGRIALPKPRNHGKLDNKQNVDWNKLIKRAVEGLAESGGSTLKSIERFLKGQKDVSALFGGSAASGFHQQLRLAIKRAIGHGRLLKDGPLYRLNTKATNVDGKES
Strand	E-score
ATATTGAG	-0.0649
AAAACCTA	-0.086
CGCAGGGC	0.0975
CAGTATAC	-0.066
CGGTGGTC	0.119
ACAGACAC	-0.03
ATTAAGTC	-0.133
CGTGGCAC	0.0904
ACATAGAG	-0.157
GATGCGAC	0.271
CATGTCAA	-0.0762
AAGAGCGG	0.188
GCCTTAAA	0.0508
ATTTTTGC	-0.07
CGCTAAAA	0.24
ACGGCGTA	0.251
ACATGTTA	-0.0956
AATGACCA	-0.135
ATGTGGCA	-0.0944
CTGTATTC	-0.115
ACCCTTCA	-0.154
CACATATA	-0.0687

Set 3
Target: RNA binding protein fox-1 homolog 2, RRM domain, GST-SBP tag (RBFOX2, Homo sapiens, UniProt O43251-10, residues 100-194)
Technique: RNA Bind-n-Seq
Form: RNA
Sample: in vitro
Concentration: 365 nM
Setting: natural RNA segment, single round, ends assumed
Baseline: no-protein control
Direction: higher = stronger binding
Residues (chain): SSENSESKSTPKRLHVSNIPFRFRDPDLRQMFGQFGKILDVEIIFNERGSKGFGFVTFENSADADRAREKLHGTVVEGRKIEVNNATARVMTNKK
Strand	RBNS enrichment (R)
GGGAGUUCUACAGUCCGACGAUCUUGCAUGAAGCUCCAGGAUUACAGUAAACUAAAUCAGUGCAAAAUAAAGUUUAUUUUAUAAAAGAAAGGCAAUAGACUAAUUUUUAUCUUAUGCUAAAUAACUUAUAUAGUGGAAUUCUCGGGUGCCAA	5.54
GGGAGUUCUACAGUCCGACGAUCUGAGAAUUGAAGACUUAGCCAGUCAGAUAAGUUUUUUCAUGAACCCGUUGUGGAAAUUAUUGGAAUUAACUGAGCCAAAGUGAUUAUGCAUUCUUCAUCUAUUUUAGUUAUGGAAUUCUCGGGUGCCAA	0.742
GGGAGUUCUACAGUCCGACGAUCACAGCCCUCCCGCCCCUUCCCCGAGGGAUGAUGCCACACCAAGCUGUGCCACCCUGGGCUCUGUGGGCUGCACUCUGUGCCCAUGGGCACUGCUGGGUGGCCCAUCCCCCUGGAAUUCUCGGGUGCCAA	0.318
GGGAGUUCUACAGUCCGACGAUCGUAGCAAACAGCCACUUAGUGCUUUGUCCUGGACUCCACUCAGCCUCAGGAUGGGGAAUAGCCAAGAAUGGCAGCCUCAGCGCAGAGGCAAGGUCAGAAAGAGACGGCGCUGGAAUUCUCGGGUGCCAA	0.231
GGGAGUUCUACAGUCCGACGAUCACUGCCAGCGUGGAGAGAGGAAGAGUCUAAUUAAAGGGAGGAUAUAAAAGGAUGAUUUCUGUUUUCAUCUACUUAUGUGGAGUAUGACUCACACUUCUAUAUUUGCACUGUGGAAUUCUCGGGUGCCAA	1.35
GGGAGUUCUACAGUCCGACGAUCCAGAGGGGGAAAAAAAAACUACAGACAAUUUCGGAUGUGAUUAGAUAUUCUUUUUUAAAUGCGGAUUUUCAAAACAUAUUUCCUUUCCAGUGUCCCUUUUGUGUCUGGCUUGGAAUUCUCGGGUGCCAA	0.4
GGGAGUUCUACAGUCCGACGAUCAAAAGAAUCUUGUAACUUUAUUCUUUUUUCUCCUGCUGAAAAAAAAAAUUAAACCAAUCGUAUGAAAGUUUGGUUUUCUUGUUUCACCCCUUCUCCUAAGUGCCCCCUGGUGGAAUUCUCGGGUGCCAA	0.816
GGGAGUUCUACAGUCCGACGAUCGAAAGCUGAAUGCAUUUUACCAGUGAGGCUCUAGAUAUGAAACUUAGGGAUCCAUAGAUAAAUAAGCUACUAACAAACUGAUAACAGUGGUGUUCCAUCUCUCUAUCAUGUGGAAUUCUCGGGUGCCAA	0.799

Set 4
Target: Hepatocyte nuclear factor 3-alpha (Foxa1, Mus musculus, UniProt P35582, residues 1-468, full length assumed)
Chain of UniProt P35582 (whole entry, looked up): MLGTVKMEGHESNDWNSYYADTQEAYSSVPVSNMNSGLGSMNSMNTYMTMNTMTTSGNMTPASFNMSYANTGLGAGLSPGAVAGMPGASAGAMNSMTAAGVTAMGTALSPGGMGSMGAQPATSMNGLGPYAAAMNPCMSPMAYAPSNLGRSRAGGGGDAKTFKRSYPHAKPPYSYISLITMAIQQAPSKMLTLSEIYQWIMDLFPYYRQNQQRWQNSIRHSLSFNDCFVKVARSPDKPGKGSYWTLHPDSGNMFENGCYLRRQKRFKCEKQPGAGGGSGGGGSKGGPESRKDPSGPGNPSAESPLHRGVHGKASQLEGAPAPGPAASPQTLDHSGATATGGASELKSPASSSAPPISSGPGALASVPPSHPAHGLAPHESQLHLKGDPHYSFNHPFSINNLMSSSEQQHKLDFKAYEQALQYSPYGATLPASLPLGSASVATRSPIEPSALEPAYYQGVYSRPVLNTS
Technique: EMSA with sequencing
Form: double-stranded DNA, one strand shown
Sample: in vitro
Concentration: 10 and 20 nM
Setting: whole designed probe, mean of two concentrations, ends assumed
Baseline: negative control set to 0
Direction: higher = stronger binding
Strand	normalised bound fraction [ratio]
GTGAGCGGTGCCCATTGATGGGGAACCTGCAGCACTACAGCCCCTTTCTAGGACATCCCTGAAGGATGCAGTGAAGGGAAATCTTCCCAGTGGGCAGAACTTCCAGCAGTGCACCTGGTAGAGTACTTTGCATGGAAGGAGAAATAATCAAATGTGTGATTACATACTGATTCATGGGCTGCAGCCAATGGTTTGGCTGGATGGTCAGGGAGGTCATTCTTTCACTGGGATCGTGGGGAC	-0.0385
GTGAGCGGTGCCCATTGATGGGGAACGCATACCAGTTGATGCCCCAGCCCTCCCTCCCAGGTAGATTTTGAAATCCTCTAGATGTGGAAAAATCTAAACATATTGTGCTATTTACAGAGTAAACAAGGGGAGTTGAGGATTTCATAAGCATGTTCTCCACTTTTTTTTCCCTTTTCCTCTTCCATCTTGGGAGTAGAAGAAAACAGATTCGGTTTACCTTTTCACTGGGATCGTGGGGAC	0.249
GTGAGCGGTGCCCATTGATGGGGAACCCAAAGTATCACAGGGAGAGATGGGCCTCTTGGGGCAGCAGCAGCAGCTGAAGCAGGCAGACTCTCAGCTGCTTCTAATATGCTAGGCTTTGTGTAAACAGGCTTTATGACACAAGTGGGCTGACTACAGTGCAATTGGAGTGTGGCATCAGAGTCTCTGTGAGGCTCTAGCTGGCTTCTTCCAGCCCTGGCCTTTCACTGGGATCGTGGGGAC	0.3
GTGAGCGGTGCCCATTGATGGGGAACATCTTCCCCCTCTTCCTTGCCCCACCAGCTCATCCTCCCGGGTTATTTGCAGATAGGAAAATAAATAAAGCCGGCATTCGTTAACCCTCTTCTGGCGCAAACTGCTGTTTGCTCTGGATGAATCATGGTCCTTTGGCGACGCCAGGCTCCGGGAGAGCAAAGCACCGTGTCAGGGCCATGATCCGGGGTGGCCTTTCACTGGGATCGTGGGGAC	0.322
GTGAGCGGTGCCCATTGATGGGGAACTTATGATCTGAGTATATATAGTAAGTACCTCCCCTTTCAGGGTAAGGCAGTAGGTAATACAGGGAAGCAGGTGAAAAGGTGACTCAGGTTGAGTAAACAACACCAAGCATATCTGACTCAAGGAATGCTTCAGAGGCCAGGGGTGCATGCCTGTAATCCCAGCACCTTGGAAGGCTGACACAGGAGGATCACTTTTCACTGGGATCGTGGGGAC	0.419

Repeated from above (set 2):
Strand	E-score
ATGTGGCA	-0.0944
CTGTATTC	-0.115
ACCCTTCA	-0.154
CACATATA	-0.0687
